Measured values pooled from the literature.
A part holds a random share of what one study measured.

Set 1
Target: Centromere-binding protein 1, full length, His-tagged (CBF1, Saccharomyces cerevisiae, UniProt P17106, residues 1-351)
Sequence of UniProt P17106 (whole entry, looked up): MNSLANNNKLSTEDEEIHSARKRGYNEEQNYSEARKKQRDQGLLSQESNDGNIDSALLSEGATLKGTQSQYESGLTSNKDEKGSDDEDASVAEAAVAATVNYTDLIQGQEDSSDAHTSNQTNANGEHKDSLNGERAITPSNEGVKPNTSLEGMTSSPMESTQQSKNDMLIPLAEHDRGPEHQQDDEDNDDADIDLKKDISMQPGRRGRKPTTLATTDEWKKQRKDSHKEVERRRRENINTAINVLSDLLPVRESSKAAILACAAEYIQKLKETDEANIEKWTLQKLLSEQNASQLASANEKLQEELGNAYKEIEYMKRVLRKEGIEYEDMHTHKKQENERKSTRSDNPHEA
Technique: competition protein-binding microarray
Molecule type: double-stranded DNA, one strand shown
Matrix: in vitro
Concentration: 2 µM
Notes: whole 60-bp probe, lowest competitor level
With: Pho4 competitor, 0.05 µM
Reading: higher = stronger binding
Measurement: fluorescence intensity
TGAACCAGTCAATATCACACTTCCAAATGGTTTGACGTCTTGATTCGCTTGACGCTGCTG: 84.7 a.u.
CTAACGAAGGTTTGAAGTGTGGGTGACAAGCCAAGTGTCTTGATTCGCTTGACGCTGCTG: 64.4 a.u.
CGTCCTAGTGATTGGCCAGTGGGTGCCATGAGGAAGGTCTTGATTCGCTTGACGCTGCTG: 74.1 a.u.
CTTCTGTAAATTTGAGGCGTGGGTGGACGCGCCCCGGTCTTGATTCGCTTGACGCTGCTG: 75 a.u.
CCTCACCATTCGGGGCAGGTGACGAAGCAAGAGCGAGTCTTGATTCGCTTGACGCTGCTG: 187 a.u.
CATTGGCCAGGGACGCATGTGCAGAGGCGGCAGAGTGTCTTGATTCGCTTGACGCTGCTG: 79.5 a.u.
CTTTCCCGATCTTGTCACATCACTTTAGCACATTTGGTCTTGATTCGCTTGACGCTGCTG: 79.4 a.u.
GACATTGCCCTGAGCATCGTGCAAATGGGGGACACTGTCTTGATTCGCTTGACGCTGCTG: 81.4 a.u.
ACTTTAAGACGAGACCTCGTGGAACCAAGATCGGTGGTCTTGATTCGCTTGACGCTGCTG: 88.6 a.u.
GAAACGGGTGGGAATGACGTGGTAATCAATGAACTAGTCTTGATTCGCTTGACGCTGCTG: 70.2 a.u.
TTGTTGAATTTGGGACCCTTGTTGATACCTCTGGATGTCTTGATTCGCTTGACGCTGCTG: 60.2 a.u.
AAACCATGGGACTGTCACACTATCCTTTCCAAGCCCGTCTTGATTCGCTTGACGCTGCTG: 76.5 a.u.

Set 2
Target: RING finger protein unkempt homolog, zinc fingers 1-6, GST-SBP tag (UNK, Homo sapiens, UniProt Q9C0B0, residues 30-357)
Sequence of UniProt Q9C0B0 (30-357, looked up): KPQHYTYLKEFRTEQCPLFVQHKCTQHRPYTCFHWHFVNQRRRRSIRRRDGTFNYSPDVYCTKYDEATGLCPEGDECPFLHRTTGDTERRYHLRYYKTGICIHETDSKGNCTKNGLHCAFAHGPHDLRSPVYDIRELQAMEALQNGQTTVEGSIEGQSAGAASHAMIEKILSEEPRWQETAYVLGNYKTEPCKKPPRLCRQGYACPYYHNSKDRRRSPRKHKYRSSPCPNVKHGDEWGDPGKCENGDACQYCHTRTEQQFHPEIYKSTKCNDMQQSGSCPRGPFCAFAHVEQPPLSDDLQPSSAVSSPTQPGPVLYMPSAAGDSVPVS
Technique: RNA Bind-n-Seq
Molecule type: RNA
Matrix: in vitro
Concentration: not given
Notes: RNA with constant flanks, human and mouse sites, ends assumed
Reference: input RNA pool
Reading: higher = stronger binding
Measurement: bound/input enrichment
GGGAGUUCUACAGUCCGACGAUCUCAUAUAUCCAACUCUGGAUUCUAAUAAAAUAAUUUGGAGAACUUUGAGAAAAAGGAAAACUGUUAAAUAAGAAAAGACCUAUUUAGAAAUUAUACUUUAGUCUAACGAAGAGGAGGUACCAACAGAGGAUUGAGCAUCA: 18.5 ratio
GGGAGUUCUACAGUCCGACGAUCAAAGCGGGAGCCAGGCCUGAGUGUUCCUGUCCCUGUGAGUGGGAAGGUCUUCUGGCUCCCCAUCCCACCUGGCUCCAGAGCCUGCCCUCCACAGCUUGCUGCCAAGCUACUCCCUCCCUCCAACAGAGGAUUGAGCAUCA: 0.209 ratio
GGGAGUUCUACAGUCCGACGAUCCACCGGUCCCCUCACAUCCCGUAUAAGUUGCUGCACCUGGUGUGGACCCACGCGAGGCACCUAGCAGGCUACGAGCAGCAGGACGCCCACGAGUUCCUCAUCGCGGCCCUGGACGUGCUCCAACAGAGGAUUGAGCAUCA: 0.115 ratio
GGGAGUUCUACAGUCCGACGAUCUUCGGAAAGAGAGAGCAGGCUGAAGAGGAACGAUAUUUCCGAGCACAGAGUAGAGAACAACUGGCAGCUUUGAAAAAACACCAUGAAGAAGAAAUCGUUCAUCAUAAGAAGGAGAUUGAGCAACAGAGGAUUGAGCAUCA: 0.34 ratio
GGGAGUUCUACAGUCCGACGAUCAUCACAGACAUCAUAAGUGGCCUUGGCAGUAACAAGUGGAUCCAGCAAAAUCUUCAGUGCUUAGUACUAAACUCAUUAACUCUGUCCCUCGAGGAUCCAUAUGAGCGGUGCUUCAGCCGGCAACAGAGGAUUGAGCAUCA: 0.197 ratio
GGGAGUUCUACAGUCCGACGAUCGAGAACCAGGAACUCGAGGCUCCUGGAGGAAUUGCCACACCGCCAGUGUACGGUCAGCUUCUAGCUUUGUACUUGCUCCAGAACGACAUGAAUAAUGCAAGAUAUCUGUGGAAGAGGAUACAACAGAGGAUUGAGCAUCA: 0.204 ratio
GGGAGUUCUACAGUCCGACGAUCGUUUCUACCAUUAUAAAUAUUUGUCUUAAAUAUCUUACCUAUGAUCCAAAUUAUAAUUACGAUGAUGAAGAUGAAGAUGAAAAUGCAAUGGAUGCUGAUGGUGGUGAUGAUGAUGAUCAACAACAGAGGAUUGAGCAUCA: 0.175 ratio
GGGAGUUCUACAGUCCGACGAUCGAAAUGGAAGAUGCACACACAGCUGUUGUGGGUAUUCCUCACGGCUUGGACAACUGGUCGUUUUUUGCAGUUUAUGACGGUCAUGCUGGAUCCCGAGUGGCAAAUUACUGUUCAACACAUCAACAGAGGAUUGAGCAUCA: 0.159 ratio
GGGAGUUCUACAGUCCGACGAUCAUUUUUUCAGUGUGCCCCAAGGGCAUUAAUGAGCCUUUAUAACUGAGAAAUGAUUCUUGUUAUAGUAAUUAUUCCAUAAAUGAUACCACUAGAUAAAUUACCUUGGGUUAAUAGCUCCAGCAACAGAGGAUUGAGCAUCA: 6.01 ratio
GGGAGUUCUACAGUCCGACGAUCUUAGCAGGUGGAGCCAUCUUCUGUGUUUCUACAUGGACAUAUACAGCCACACAAAUUGGAAUAGAAUGGAACAUGUCCCCUGUUGGCAGAGUCACCCCAAAGGAAUGGAGAGAUCAGUAGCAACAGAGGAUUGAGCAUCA: 0.491 ratio
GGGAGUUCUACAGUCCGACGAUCGAAGCAAGAGCUUUUGCAGAAAAGAAUGGUUUGUCAUUCAUUGAAACUUCGGCCCUAGACUCUACAAAUGUAGAAGCUGCUUUUCAGACAAUUUUAACAGAGAUUUACCGCAUUGUUUCUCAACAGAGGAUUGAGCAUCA: 0.769 ratio

Set 3
Target: Fragile X messenger ribonucleoprotein 1, C-terminal low-complexity region (Fmr1, Mus musculus, UniProt P35922)
Technique: RNA Bind-n-Seq
Molecule type: RNA
Matrix: in vitro
Concentration: 200 nM
Notes: whole 134-nt RNA, ends assumed
With: 150 mM LiCl
Reference: input library
Reading: higher = stronger binding
Measurement: log2 enrichment
Each molecule: 7-deaza-guanosine replaces G
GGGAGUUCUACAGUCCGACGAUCUAACUUUAGAGGAGGAUCUGAUGGAUAUGGCAGUGGACGUGGAUUUGGGGAUGGCUAUAAUGGGUAUGGAGGAGGACCCGGAGGUGGCAAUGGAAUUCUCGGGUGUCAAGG: -0.204
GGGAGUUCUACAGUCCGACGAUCAUCAUGCAGGUGGGCAUCUUUGGGAAGUGGGGCAAGGGGGGGAUAGGGAGGGGGGUAACACUUUGGGAACAGGUGGUCCCAGGUCGUUUCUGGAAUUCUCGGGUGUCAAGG: 1.52
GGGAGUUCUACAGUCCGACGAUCUGGCCCUGGUGGCGUGCGGGGAGGAAGAGGUGGCCUCAUGGAUCGUGGUGGUCCCGGUGGAAUGUUCAGAGGUGGCCGUGGUGGAGACAGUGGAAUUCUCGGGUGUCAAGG: 0.749
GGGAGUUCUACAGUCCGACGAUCUCAAGUCCUGUGCUACACAUCGUAUGUACCGAAUCGGGAAAAAGGGAGGGAGGGAAAGUAUUAUGUUACGCCGUUCGGAUCUGCACUUCCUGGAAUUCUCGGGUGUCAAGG: -1.25
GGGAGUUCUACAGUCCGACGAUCUAACUUUAGAGGAGCAUCUGAUGGAUAUGGCAGUGGACGUGGAUUUGGGGAUGGCUAUAAUGGGUAUGGAGGAGGACCUGGAGGUGGCAAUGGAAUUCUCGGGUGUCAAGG: 0.251
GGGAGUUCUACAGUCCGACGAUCCUCAAGUCCUGUGCUACACAUCGUAUGUACCGAAUCGGGGAGGGAGGGAGGGGAAAGUAUUAUGUUACGCCGUUCGGAUCUGCACUUCCAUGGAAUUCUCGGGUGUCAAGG: -0.483
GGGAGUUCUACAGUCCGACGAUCAGUCCUGUGCUACACAUCGUAUGUACCGAAUCGGGGAGGGGUUUUUUUGGGGAGGGGAAAGUAUUAUGUUACGCCGUUCGGAUCUGCACUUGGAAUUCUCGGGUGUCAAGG: 0.205
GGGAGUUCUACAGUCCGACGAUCCUCAAGUCCUGUGCUACACAUCGUAUGUACCGAAUCGGGAGGGAAAGGGAGGGAAAGUAUUAUGUUACGCCGUUCGGAUCUGCACUUCCAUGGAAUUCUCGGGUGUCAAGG: -0.231

Set 4
Target: RNA binding protein fox-1 homolog 2, RRM domain, GST-SBP tag (RBFOX2, Homo sapiens, UniProt O43251-10, residues 100-194)
Technique: RNA Bind-n-Seq
Molecule type: RNA
Matrix: in vitro
Concentration: 365 nM
Notes: natural RNA segment, single round, ends assumed
Reference: no-protein control
Reading: higher = stronger binding
Measurement: RBNS enrichment (R)
Target sequence (chain): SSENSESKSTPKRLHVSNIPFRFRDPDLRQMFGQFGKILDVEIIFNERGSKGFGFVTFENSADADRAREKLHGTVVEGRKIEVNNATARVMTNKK
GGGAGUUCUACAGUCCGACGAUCAACUCAGGUAAUUUCCAUUUCUGGUUUUAUAUUCUCUGUAUCUCCUGCCUGGGUGUCACUUUCUAGACAGUAAGGCGCUCCACUGCUUGCUGUCUGAGAUAUCCUUCAUAUGGAAUUCUCGGGUGCCAA: 0.197
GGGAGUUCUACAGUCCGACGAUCCUGGACUGCAUGGGGAGGCAGCAGAGCGGGGUCCCCUCUGUGCUUCGACUACUGCUCCUGUGGCAGGAGGCUUUGGGUGGCUCACUACUGAACACAUGUGUAUGAUACUAUGGAAUUCUCGGGUGCCAA: 0.978
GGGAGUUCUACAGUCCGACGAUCGGCAUGGUGACUUGUCACUCCUGCCAAAAAUAUUAAAAAUGCCUUUUUUGGAAGGACUACAGAAAGUACCUGAUUUGCACUUGAACCAGAUUAUAGAUUUAAAAGUAUAUUGGAAUUCUCGGGUGCCAA: 1.62
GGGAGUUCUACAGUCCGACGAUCCAGAAUUGAGAAGAACGUGCCAAAUGAGAAUCAAUUAGGUGGAUUUUUGGCUGUCAUUUCAAAAGUGGAAUAAAUUUAUUAAUUUAGUAGUACUAAAUGGUAUCCUUAGAUGGAAUUCUCGGGUGCCAA: 0.443
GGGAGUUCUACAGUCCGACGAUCACUGGUCAGCGGGCAGCACGUCAAGGUCACUUAAGCCCACUUUUAACUGCAGGUCAUCCUCGCAUCAGCCAAGGCUGUGGUGCUGUUGAUGCCGCAGUUGGACAGCAUAGUGGAAUUCUCGGGUGCCAA: 0.806
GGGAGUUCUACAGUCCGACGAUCGCUUCUUUGAUGAAGGAGGAGAGAUGAAGAGUUGCUUGUUUUGCAGAAUUCUAUAGCAUGAAGGUUAACCUUGUCUCCAUUCAUGGGGGUUUAAUUGCCCUAUUGCUCAAUGGAAUUCUCGGGUGCCAA: 6.32
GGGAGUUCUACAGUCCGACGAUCAGACCUGAGCCUGGGUCCUGACUUUUCCAUUGACUAAGCUCUGUGGCCUUGGGCAAGUCACUCCCCCUCUCUGAGCUUCAGUAUCCUCCUGUCACAGGAGGGAGUUGGGCUGGAAUUCUCGGGUGCCAA: 0.593
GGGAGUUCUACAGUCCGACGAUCCCGGAAGCUCCCGCGUGCAUCCCGGGAUGACCAGACUCCCGGACUCCUCAGGCAGUGCCCUUCCUCCCCACUCUUCCUCCCCACAGACAGGCCUCUGCUCCUGCGCCUGCUGGAAUUCUCGGGUGCCAA: 0.819
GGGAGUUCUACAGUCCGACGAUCCCUCCAAAAGACUCCUUGCAUUAGGUGAUCCAGGAGCCCUGUCACUAAGCCCCUGCCCCUGAGCUCCAGAGCUGUGUGUUUGGGCAAGGAUGGGCGGGGAUUGGCCGGGGUGGAAUUCUCGGGUGCCAA: 0.361

For quick reference, copied from above (set 3):
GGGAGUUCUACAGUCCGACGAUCCUCAAGUCCUGUGCUACACAUCGUAUGUACCGAAUCGGGGAGGGAGGGAGGGGAAAGUAUUAUGUUACGCCGUUCGGAUCUGCACUUCCAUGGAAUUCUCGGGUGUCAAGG: -0.483
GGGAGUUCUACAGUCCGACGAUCAGUCCUGUGCUACACAUCGUAUGUACCGAAUCGGGGAGGGGUUUUUUUGGGGAGGGGAAAGUAUUAUGUUACGCCGUUCGGAUCUGCACUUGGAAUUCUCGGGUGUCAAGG: 0.205
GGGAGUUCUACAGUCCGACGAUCUAACUUUAGAGGAGCAUCUGAUGGAUAUGGCAGUGGACGUGGAUUUGGGGAUGGCUAUAAUGGGUAUGGAGGAGGACCUGGAGGUGGCAAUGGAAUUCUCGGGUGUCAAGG: 0.251
